Measured values of several laboratories.
Parts stem from different laboratories: compare values within a part only. Changes are numbered by the printed parent chain.

Study 1
Target: Histone acetyltransferase KAT6A, winged helix 1, GST fusion (KAT6A, Homo sapiens, UniProt Q92794, residues 1-85)
Method: protein binding microarray
Molecule type: double-stranded DNA, one strand shown
Medium: in vitro
Tested at: not given
Notes: 8-mer, flanks averaged, mean of 2 arrays, mostly near background
Baseline: not given
Direction: higher = stronger binding
Residues (chain): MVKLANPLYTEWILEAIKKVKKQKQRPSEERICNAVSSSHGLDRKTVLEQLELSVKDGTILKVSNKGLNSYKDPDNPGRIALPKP
Oligonucleotide | E-score
ACCCTGTC | -0.0369
AGGTCTGC | 0.0523
ACGAACCA | -0.0847
CCGATCCA | 0.11
GCGTGAGA | 0.111
TATAGACA | -0.311
GTACGAGA | -0.107
ACTTCGTG | -0.129
CTCCATGC | -0.128
ACCTCTTG | -0.152
CTCAGGAA | -0.146
GTGGGAAC | -0.161
CTTGGAGA | -0.178
ATTTACCC | -0.0142
AAACTCGC | -0.00919
ACACAGTC | -0.17
AAGTAGAT | -0.129
ACTCGTAC | 0.0108
TGCTCCCA | -0.324
TCCAGCGA | -0.135

Study 2
Target: RNA binding protein fox-1 homolog 2, RRM domain, GST-SBP tag (RBFOX2, Homo sapiens, UniProt O43251-10, residues 100-194)
Method: RNA Bind-n-Seq
Molecule type: RNA
Medium: in vitro
Tested at: 365 nM
Notes: natural RNA segment, single round, ends assumed
Baseline: no-protein control
Direction: higher = stronger binding
Construct (chain): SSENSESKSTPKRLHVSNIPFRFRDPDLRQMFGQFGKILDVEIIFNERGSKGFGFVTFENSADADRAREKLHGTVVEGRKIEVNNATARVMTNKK
Oligonucleotide | RBNS enrichment (R)
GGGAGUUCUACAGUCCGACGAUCCUAAAAUAAUCGUCAGUCUUAAGAGUAAAGACAGCGAAACUGCACACUUAUAAGUUCUUUUCAGCUUCUACAAUAAAGAAAAGUUCAGAAAUGCUUUCAGUUACCAAAGUUGGAAUUCUCGGGUGCCAA | 0.304
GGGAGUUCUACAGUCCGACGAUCAGGGCUGCAGCUGAGAGCAGACUGCUGAUUGGUGACUCUGGUCUGCCUAGCUUUUGCAACUCUUUAAGCUUACUGUGAUCACGUGCCCUCUCAGUAGGGGGCUUUUAGAGUGGAAUUCUCGGGUGCCAA | 0.587
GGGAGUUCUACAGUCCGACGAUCAAAGGGGGUCAAGAAAAGAGCAACAAAGCAAAAUUGUUCUUCCUCUUCCCUUCCCUGAUGCCAGGGGCACCAGACUGAUUCUGAGGCACAAAUAAAAGCGGUUUCAAACCUGGAAUUCUCGGGUGCCAA | 0.229
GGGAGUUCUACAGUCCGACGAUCUCAAGGGUAUUCUUUUAAAACUCUGAUUUCAAAGGAUCAGUUGAAUUUAUACUUUAGUUAUGGGUGUUUUGUUACUUUUUUUUUUUUUGUAUCAUGACUCAGUAUGGUUCUGGAAUUCUCGGGUGCCAA | 1.77
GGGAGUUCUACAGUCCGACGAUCUAAUCAUAGCUACUUCAGUUUUGUGUAUCUGUUCUCUGCAGAUGGUUUGAAACUGUAUAGGAAGAACAGGUAAAGGCAGGUGGAGUGCACACAGAUCGCACCACAUGGCUUGGAAUUCUCGGGUGCCAA | 0.473
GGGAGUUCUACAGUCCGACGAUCGCCUGGAGGUGGGGGUGGGGGCAGCCAAGUCCAGCCACUCUUCACCUGGCUCCCUGCUCUGGGCCCUGCACCAGAGCUGCCACCCUCUUCUUUCUCCCCAGCCUUCUCAUUGGAAUUCUCGGGUGCCAA | 0.351
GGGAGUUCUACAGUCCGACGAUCGAUCAGGAAGUUUGAGUGCUAUGCAAAUAACAUAGUAGUAAUUUCUCUUUGCAUGCCAUGUGUAAUAUACCUAGCCAAAACCAGAUGCGGUGACUUUCUUUUUUUGUAAAUGGAAUUCUCGGGUGCCAA | 3.15
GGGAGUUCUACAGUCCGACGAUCUCACUGUUUCUGCCAGUCACAUGCUCUUCCUGUAUGAGUGACACUGCCGUGCUUUCCUCCAGUUAUCCUUUGCAUUAACUACGUGGGAACUCUUGCAGGCUAUAUAUGUGUGGAAUUCUCGGGUGCCAA | 0.493
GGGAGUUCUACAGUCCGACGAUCAAGAGAAAUUUUAUCAUCUUUUGAAAGGAAGUCAUGACUGAAGCAAUAAACCUUUUCACUGAUUCAAAACACUGGCUUCUGUGACUGUUUUCUGGGCAGGGCUGGGUCUCUGGAAUUCUCGGGUGCCAA | 0.52
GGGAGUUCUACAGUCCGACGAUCAUGAUGACUUUUAAGCAUUUACAUCACGUACUCAUAACCUAUUAUGAAAAUAAAUGAAACUGGCUGGGUAUGGUGGCUCAUGCCUAUAAUCCCAGCACUUUGGGAGGCCGUGGAAUUCUCGGGUGCCAA | 0.277
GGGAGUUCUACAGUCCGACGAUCGGAGGCUGAGGCAGGAGAAUCUCAAGUUCAGGGCCAGCCUGGGCCACAUACUGAUACCCUGUCUCUCAAAGGGAGAAAAAUUACUUAGGUAUGUCAGCACUUUUGUCCUGUGGAAUUCUCGGGUGCCAA | 0.476
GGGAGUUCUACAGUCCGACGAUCUAAAAAUGACUUCAUUGUACUUGAACACCUUUGCAUUUCUCCAUUUGUGCCAUUUACAAGUGGAAAUAAAUUUUAUUAUACCAUGAUCUACUGGCGUUUUAAAACUGUUAUGGAAUUCUCGGGUGCCAA | 0.538

Study 3
Target: CCNE1, cyclin fold, Cln2 fusion (human)
Method: yeast growth competition, sequencing
Medium: yeast
Notes: strong parent motif
Baseline: not given
Direction: higher = stronger binding
Starting sequence: PKN2 docking peptide (human); VSAVRKLDFSDTM; partner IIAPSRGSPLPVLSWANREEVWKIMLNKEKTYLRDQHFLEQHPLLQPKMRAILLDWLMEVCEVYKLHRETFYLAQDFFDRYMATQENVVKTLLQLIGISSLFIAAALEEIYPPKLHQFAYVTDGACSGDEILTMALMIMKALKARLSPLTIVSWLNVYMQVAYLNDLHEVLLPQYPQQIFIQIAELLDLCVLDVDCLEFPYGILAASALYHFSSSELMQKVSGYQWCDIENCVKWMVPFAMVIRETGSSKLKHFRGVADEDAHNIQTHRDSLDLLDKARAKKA
Change | normalised enrichment score
VAAVRKLDFSDTM [S2A] | 5.22
VSAVRALDFSDTM [K6A] | 3.55
VSAVRKLLFSDTM [D8L] | 3.21
VSAVFKLDFSDTM [R5F] | 0.323
VSAVNKLDFSDTM [R5N] | 0.228
VSAVRKLDFSDFM [T12F] | 5.98
VSALRKLDFSDTM [V4L] | 1.32
VSAVRKLDFMDTM [S10M] | 5.03
VSAVRKLIFSDTM [D8I] | 4.5
VSAVRKLQFSDTM [D8Q] | 4.32
VSAHRKLDFSDTM [V4H] | 1.18
VSAVDKLDFSDTM [R5D] | 0.198
VSCVRKLDFSDTM [A3C] | 5.21
VSAVRKLDFTDTM [S10T] | 5.43
VSAVRHLDFSDTM [K6H] | 2.84
VSAVRKLFFSDTM [D8F] | 4.53
VSAVRTLDFSDTM [K6T] | 3.82
VSAARKLDFSDTM [V4A] | 3.85
VSWVRKLDFSDTM [A3W] | 4.84
VSTVRKLDFSDTM [A3T] | 4.17
VSIVRKLDFSDTM [A3I] | 3.29
VSAVSKLDFSDTM [R5S] | 0.176
VSAVRKLDFSCTM [D11C] | 5.28
VSAVRKLDFSDNM [T12N] | 5.65
VSAVRKPDFSDTM [L7P] | 0.381

Mixed results
Substance | target | assay | test system | conditions | scale | measurement | result
PhoQ, residues 284 288 289 292 302 303 NLGVHL | PhoP, residues 12 14 15 18 19 NHFIF (Escherichia coli, UniProt P23836) | Sort-seq, measured: YFP reporter | E. coli | PhoQ-PhoP variant library, with: 10 µM Mg2+ | baseline: high Mg2+ state, higher = stronger signaling | fold induction | 4.95

Repeated from above (study 1):
Oligonucleotide | E-score
CTCCATGC | -0.128
ATTTACCC | -0.0142
ACCTCTTG | -0.152
TATAGACA | -0.311
